# Experimental data gathered from unrelated publications.
# Numbered parts are unrelated; each lists some results of a single study.
# Sequence of UniProt O76039 (whole entry, looked up): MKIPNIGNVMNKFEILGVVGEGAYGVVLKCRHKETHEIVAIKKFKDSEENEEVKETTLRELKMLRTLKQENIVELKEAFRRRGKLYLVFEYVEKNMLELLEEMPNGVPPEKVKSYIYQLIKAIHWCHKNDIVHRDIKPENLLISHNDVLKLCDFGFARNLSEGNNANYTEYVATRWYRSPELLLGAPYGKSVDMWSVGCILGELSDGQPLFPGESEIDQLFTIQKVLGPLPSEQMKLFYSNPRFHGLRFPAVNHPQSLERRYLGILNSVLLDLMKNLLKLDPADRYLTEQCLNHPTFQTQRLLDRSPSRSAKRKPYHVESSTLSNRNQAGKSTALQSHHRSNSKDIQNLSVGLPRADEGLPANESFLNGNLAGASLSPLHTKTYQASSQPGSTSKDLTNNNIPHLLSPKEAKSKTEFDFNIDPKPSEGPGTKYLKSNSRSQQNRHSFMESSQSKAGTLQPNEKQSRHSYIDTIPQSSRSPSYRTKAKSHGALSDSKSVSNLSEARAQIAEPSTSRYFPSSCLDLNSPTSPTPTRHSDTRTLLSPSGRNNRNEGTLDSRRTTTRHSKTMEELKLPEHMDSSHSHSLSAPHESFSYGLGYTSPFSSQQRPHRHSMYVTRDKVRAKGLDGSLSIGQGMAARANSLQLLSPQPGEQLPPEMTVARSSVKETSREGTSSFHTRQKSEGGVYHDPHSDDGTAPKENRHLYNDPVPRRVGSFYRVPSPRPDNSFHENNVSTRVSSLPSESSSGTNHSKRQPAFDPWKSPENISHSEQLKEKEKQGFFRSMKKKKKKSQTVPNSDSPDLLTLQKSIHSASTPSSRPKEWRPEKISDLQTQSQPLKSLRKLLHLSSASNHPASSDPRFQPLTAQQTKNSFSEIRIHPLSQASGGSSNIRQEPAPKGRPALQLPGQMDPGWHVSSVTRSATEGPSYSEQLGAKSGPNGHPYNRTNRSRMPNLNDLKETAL
# Sequence of UniProt P21802 (whole entry, looked up): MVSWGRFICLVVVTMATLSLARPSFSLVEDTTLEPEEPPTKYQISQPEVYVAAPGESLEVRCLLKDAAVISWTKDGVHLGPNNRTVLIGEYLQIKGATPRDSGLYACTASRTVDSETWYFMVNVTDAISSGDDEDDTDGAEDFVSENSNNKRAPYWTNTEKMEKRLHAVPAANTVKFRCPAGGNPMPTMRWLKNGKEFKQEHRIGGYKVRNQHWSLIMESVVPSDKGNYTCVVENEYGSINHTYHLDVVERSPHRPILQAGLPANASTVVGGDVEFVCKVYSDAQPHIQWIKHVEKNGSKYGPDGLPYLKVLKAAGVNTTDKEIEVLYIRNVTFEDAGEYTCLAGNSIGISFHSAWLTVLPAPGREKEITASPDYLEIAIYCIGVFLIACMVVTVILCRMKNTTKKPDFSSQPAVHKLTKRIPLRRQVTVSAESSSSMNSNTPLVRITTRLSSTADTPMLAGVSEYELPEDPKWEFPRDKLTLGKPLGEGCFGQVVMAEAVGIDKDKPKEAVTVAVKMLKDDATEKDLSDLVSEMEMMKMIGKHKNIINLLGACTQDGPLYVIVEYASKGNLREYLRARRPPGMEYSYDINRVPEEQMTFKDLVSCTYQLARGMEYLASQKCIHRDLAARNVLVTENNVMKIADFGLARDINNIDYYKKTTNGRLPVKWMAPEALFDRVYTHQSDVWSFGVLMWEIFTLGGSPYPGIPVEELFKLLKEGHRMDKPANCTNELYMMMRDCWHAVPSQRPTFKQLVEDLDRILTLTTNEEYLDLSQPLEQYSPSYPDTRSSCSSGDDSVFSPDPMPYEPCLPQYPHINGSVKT
# Sequence of UniProt P36894 (whole entry, looked up): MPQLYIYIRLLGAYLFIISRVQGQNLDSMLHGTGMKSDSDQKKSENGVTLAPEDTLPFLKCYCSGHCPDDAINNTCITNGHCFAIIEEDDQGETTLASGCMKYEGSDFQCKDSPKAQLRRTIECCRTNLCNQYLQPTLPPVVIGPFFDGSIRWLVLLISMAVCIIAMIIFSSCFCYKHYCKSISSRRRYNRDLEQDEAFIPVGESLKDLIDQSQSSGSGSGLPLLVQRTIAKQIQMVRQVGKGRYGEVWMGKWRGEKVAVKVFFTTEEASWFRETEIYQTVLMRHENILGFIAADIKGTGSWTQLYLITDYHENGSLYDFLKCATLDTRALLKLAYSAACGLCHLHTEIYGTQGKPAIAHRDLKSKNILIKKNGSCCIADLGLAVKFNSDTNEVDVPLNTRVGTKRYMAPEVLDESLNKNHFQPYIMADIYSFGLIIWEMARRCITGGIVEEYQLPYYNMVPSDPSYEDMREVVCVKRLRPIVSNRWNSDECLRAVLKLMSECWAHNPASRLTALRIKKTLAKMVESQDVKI
# Sequence of UniProt P51957 (whole entry, looked up): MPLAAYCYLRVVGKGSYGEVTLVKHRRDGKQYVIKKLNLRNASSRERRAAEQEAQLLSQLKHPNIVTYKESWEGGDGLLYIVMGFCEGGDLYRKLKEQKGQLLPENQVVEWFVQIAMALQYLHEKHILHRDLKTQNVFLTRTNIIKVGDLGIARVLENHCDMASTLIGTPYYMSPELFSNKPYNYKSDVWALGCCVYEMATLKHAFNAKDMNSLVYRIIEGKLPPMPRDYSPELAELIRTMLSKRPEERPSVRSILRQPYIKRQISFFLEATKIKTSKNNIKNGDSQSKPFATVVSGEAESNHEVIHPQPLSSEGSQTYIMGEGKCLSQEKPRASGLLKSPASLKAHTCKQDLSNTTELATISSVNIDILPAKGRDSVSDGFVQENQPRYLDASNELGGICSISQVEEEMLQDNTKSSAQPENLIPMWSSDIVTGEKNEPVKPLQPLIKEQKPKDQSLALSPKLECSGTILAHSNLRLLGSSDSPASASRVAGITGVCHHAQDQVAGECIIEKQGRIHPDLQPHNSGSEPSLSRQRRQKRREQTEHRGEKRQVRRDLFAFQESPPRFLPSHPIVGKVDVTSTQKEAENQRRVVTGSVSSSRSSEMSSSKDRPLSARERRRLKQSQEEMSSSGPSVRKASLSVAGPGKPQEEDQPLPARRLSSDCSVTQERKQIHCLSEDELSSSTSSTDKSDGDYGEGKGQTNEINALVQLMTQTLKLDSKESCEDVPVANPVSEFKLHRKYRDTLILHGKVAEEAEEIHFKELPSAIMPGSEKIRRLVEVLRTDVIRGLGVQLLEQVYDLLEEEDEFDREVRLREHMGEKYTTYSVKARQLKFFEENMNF
# Sequence of UniProt Q00536 (whole entry, looked up): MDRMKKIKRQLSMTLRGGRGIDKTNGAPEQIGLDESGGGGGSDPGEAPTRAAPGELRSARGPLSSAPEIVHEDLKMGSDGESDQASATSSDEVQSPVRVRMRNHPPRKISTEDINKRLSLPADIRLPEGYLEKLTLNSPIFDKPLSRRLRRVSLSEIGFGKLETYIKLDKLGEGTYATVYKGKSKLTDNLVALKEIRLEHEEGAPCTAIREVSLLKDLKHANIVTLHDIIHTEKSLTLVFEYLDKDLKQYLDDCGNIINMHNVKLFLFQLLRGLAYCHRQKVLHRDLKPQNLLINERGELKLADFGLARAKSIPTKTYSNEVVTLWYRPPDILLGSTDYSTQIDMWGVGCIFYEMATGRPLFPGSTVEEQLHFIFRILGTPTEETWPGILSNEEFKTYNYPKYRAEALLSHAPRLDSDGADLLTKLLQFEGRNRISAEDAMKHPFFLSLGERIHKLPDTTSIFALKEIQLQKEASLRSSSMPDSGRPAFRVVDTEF
# Sequence of UniProt P11309 (whole entry, looked up): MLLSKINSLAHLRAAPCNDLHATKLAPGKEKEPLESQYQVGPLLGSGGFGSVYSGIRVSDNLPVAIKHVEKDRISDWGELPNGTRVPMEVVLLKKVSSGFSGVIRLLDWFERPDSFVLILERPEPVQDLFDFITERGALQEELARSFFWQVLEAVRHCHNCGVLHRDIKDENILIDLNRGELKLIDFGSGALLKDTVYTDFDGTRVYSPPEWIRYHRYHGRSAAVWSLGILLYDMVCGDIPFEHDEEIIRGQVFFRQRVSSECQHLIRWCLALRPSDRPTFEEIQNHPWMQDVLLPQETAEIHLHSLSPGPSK

# Study 1
# SMILES: [2H]c1c([2H])c([C@]2([2H])CCCN2C(=O)C(C)(C)Oc2ccc3cn[nH]c3c2)c([2H])c([2H])c1C([2H])([2H])[2H]
# Read-out: binding
# Technique: competition with immobilised ligand
# Tested at: 1 µM
target,remaining binding [%]
"Cyclin-dependent kinase 16 (CDK16, Homo sapiens, UniProt Q00536)",87
"RAF proto-oncogene serine/threonine-protein kinase (RAF1, Homo sapiens, UniProt P04049)",100
"Receptor-type tyrosine-protein kinase FLT3 (FLT3, Homo sapiens, UniProt P36888)",85
"Bone morphogenetic protein receptor type-1A (BMPR1A, Homo sapiens, UniProt P36894)",65
"Serine/threonine-protein kinase PAK 3 (PAK3, Homo sapiens, UniProt O75914)",64
"Serine/threonine-protein kinase Nek4 (NEK4, Homo sapiens, UniProt P51957)",100
"Serine/threonine-protein kinase pim-1 (PIM1, Homo sapiens, UniProt P11309)",96
"Fibroblast growth factor receptor 2 (FGFR2, Homo sapiens, UniProt P21802)",89

# Single results of other studies
# CA9: Carbonic anhydrase 9 (CA9, Homo sapiens, UniProt Q16790)
Structure (SMILES),tested on,test,system,conditions,quantity,value
CCn1c(SCc2cc(Cl)cc(S(N)(=O)=O)c2)nc2cc(S(N)(=O)=O)ccc21,CA9,"enzyme activity, inhibitor",,,IC50,44 nM
Cc1n[nH]c(C)c1CCCOc1cc(OCCCCCCNCCOCCn2cc(C[C@H](NC(=O)CCCCC[N+]3=C(C=CC4=CC(=CC=C5N(C)c6ccc(S(=O)(=O)O)cc6C5(C)C)CCC4)C(C)(C)c4cc(S(=O)(=O)[O-])ccc43)C(=O)NCCCCCC(=O)NCCCC[C@H](NC(=O)N[C@@H](CCC(=O)O)C(=O)O)C(=O)O)nn2)cc(C(=O)O)c1,,,PBS,pH 7.4,solubility,≥ 200 µM
O=C(c1ccc(F)cc1)C1CCN(CCn2c(=O)[nH]c3ccccc3c2=O)CC1,,metabolic stability,"monkey, liver microsomes",5 min,compound remaining,94.3%
Cn1nc2c(=O)n(C3CC3)ccc2c1[C@](N)(c1cnc(C(F)(F)F)c(Cl)c1)C(F)(F)F,,nephelometry,aqueous buffer,"30 min, pH 6.5",kinetic solubility,40 to 80 µM
C#CC[C@H](NC(=O)CCCCC[N+]1=C(C=CC2=CC(=CC=C3N(C)c4ccc(S(=O)(=O)O)cc4C3(C)C)CCC2)C(C)(C)c2cc(S(=O)(=O)[O-])ccc21)C(=O)NCCCCCC(=O)NCCCC[C@H](NC(=O)N[C@@H](CCC(=O)O)C(=O)O)C(=O)O,,,PBS,pH 7.4,solubility,≥ 200 µM
Cc1ccc(C(=O)N2CCC(c3cccc(S(N)(=O)=O)c3)CC2)cc1NC(=O)c1ccco1,CA9,"enzyme activity, inhibitor",,,IC50,37.2 nM
C=CC(=O)N1CCC(COCC(=O)N2CCN(c3nc(-c4cnc(N)nc4C(F)F)nc(N4CCOC[C@@H]4C)n3)CC2)CC1,"Cyclin-dependent kinase-like 5 (CDKL5, Homo sapiens, UniProt O76039)","binding, competition with immobilised ligand",,1 µM,remaining binding,89%
COc1cc(-c2cncc3c2CN(C)Cc2cc(N4CCNCC4)ccc2-3)cc(OC)c1OC,"Serine/threonine-protein kinase Chk1 (CHEK1, Homo sapiens, UniProt O14757)","enzyme activity, inhibitor",,1 µM,remaining activity,100%

# A few entries again (single results of other studies):
Structure (SMILES),tested on,test,system,conditions,quantity,value
Cc1n[nH]c(C)c1CCCOc1cc(OCCCCCCNCCOCCn2cc(C[C@H](NC(=O)CCCCC[N+]3=C(C=CC4=CC(=CC=C5N(C)c6ccc(S(=O)(=O)O)cc6C5(C)C)CCC4)C(C)(C)c4cc(S(=O)(=O)[O-])ccc43)C(=O)NCCCCCC(=O)NCCCC[C@H](NC(=O)N[C@@H](CCC(=O)O)C(=O)O)C(=O)O)nn2)cc(C(=O)O)c1,,,PBS,pH 7.4,solubility,≥ 200 µM
COc1cc(-c2cncc3c2CN(C)Cc2cc(N4CCNCC4)ccc2-3)cc(OC)c1OC,"Serine/threonine-protein kinase Chk1 (CHEK1, Homo sapiens, UniProt O14757)","enzyme activity, inhibitor",,1 µM,remaining activity,100%
